Assay results pooled from the literature.
Every numbered part comes from another study and shows a few of its results, in no order. Changes are numbered by the printed parent chain.

Sample 1
Target: CCNE2, cyclin fold, Cln2 fusion (human)
Method: yeast growth competition, sequencing
Sample: yeast
Setting: weak parent motif
Reference: not given
Reading: higher = stronger binding
Quantity: normalised enrichment score
Parent: CDC6 docking peptide (human); TLKGRRLVFDNQL; partner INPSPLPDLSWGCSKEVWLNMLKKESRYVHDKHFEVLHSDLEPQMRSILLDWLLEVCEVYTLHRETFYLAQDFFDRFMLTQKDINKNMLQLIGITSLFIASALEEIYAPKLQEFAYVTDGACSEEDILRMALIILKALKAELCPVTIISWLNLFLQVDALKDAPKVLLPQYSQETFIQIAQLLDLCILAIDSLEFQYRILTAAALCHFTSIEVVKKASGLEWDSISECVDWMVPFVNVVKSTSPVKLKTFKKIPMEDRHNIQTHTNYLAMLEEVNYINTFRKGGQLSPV
N11S: 0.0838
L7A: 0.595
G4S: -0.93
D10L: 0.423
Q12K: 0.299
K3D: -0.363
V8C: 1
R6T: 0.102

Sample 2
Target: RNA binding protein fox-1 homolog 2, RRM domain, GST-SBP tag (RBFOX2, Homo sapiens, UniProt O43251-10, residues 100-194)
Method: RNA Bind-n-Seq
Form: RNA
Sample: in vitro
Concentration: 365 nM
Setting: natural RNA segment, single round, ends assumed
Reference: no-protein control
Reading: higher = stronger binding
Quantity: RBNS enrichment (R)
All sequences stand within: GGGAGUUCUACAGUCCGACGAUC … UGGAAUUCUCGGGUGCCAA
Target sequence (chain): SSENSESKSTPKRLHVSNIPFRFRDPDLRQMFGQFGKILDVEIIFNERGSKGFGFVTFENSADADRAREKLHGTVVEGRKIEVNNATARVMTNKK
GGAUUUAAUGCACUUGACGUGGAUUAAGUUAUUCUGAGCAUGUUACUGUAAUGAUUCUCAAAUUAACUGUAUUAGUGUAAGCUUUGUCACUAUGCGCUAAACGUAAUCCU: 0.899
GCCAAAAUGAGCCUCGGUGUCAGAGGAUACAACAAAAACAGCAAUUUUGAUGCCUUUGAAAUGAUGAAGGGAUUCUACCUGUAUUUUUACUCUUAGAACAGAUACAACUU: 0.442
GCAAGCAGUGUAAACUGCAACUAGUGAUGUAAAUGUGCUAUUACCUAGGUAACUGCAUAUAUAUAAGGAAUGUAUUUUGUUAAGAAGGCUUUUGUGAAAUUCAGAAUUUU: 0.493
UGCUCUGACCUUGUGUAUUCUGACUCUUUGGAAACCAGGCCCUGCUUUUGCCAAGCCUCCCAUCCUGAGCUCUAAAUGGAAGGCCUUUCUAUGGGGUAGCUAAGUUUGGG: 0.242
UAAGGAUCUCUAUUUCAUCUCUUGAACGAUGAAAAUAGUGACGUAUAUAUAGUACUUCUAUAAAUAACAGUUUUUAAGAAAUAGGUAAGUGGGGCAGGUUUGGUGGCUUC: 0.918
AGAUGUCCCACAUGGAAGACGCUAUUCCAGGAUCUUUAAAUUUCCAUGGAUGCAUAUAGGAUGUUUGGGAGCAUCAUCCGUGAAGAAAAAAUCAAUUAAAUCAUUGUGUU: 0.601
AAAAAAAAAAAAAAAAAAAAAAAAAAAAGGAGAAAGAAAAAAAAAGAAAGAAAAAAUAGCAGCUUUCAGUGCUUCACAGUGAAGGGAAAAAAGCCUAGACAAACAUUUUG: 5.12
UUCUCAUCCCCUGCUUGGCUUCUCUGCAUGUGGUCAUCUGCUGUGGCUUGGUGUUUAAUGGGUUAAAAAUAAGCCACUGCCUGACAUCCCAACAUUUGACACCCCAGCAA: 10.1

Sample 3
Target: Histone acetyltransferase KAT6A, winged helix 1, GST fusion (KAT6A, Homo sapiens, UniProt Q92794, residues 1-85)
Method: protein binding microarray
Form: double-stranded DNA, one strand shown
Sample: in vitro
Concentration: not given
Setting: 8-mer, flanks averaged, mean of 2 arrays, mostly near background
Reference: not given
Reading: higher = stronger binding
Quantity: E-score
Target sequence (chain): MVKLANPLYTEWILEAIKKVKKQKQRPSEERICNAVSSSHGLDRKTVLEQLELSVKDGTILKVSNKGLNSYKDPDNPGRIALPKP
CATTCTTC: -0.169
CGGCAGGC: 0.255
ACAGCCAA: -0.0833
ACCCCAGC: -0.202
GCGAACAA: 0.00299
AGTTCGAG: -0.169
GTTCTAAA: -0.00229
GTAGTGAA: -0.0875
CAAGACAC: -0.105
CACGTACC: 0.0503
AGTTTTTC: -0.0327
ACATGCAA: -0.191
TGTTAGAA: -0.23
CCTTAACG: 0.113
AGAAACAC: -0.0553
CGTATCCC: 0.154
CTACGGAC: 0.31
AAACACAA: -0.254
AACTGCTA: -0.119

Sample 4
Target: ABI1, truncated, D143A, DHFR fusion (Arabidopsis thaliana)
Method: DHFR PCA, deep sequencing
Sample: yeast
Setting: methotrexate growth selection, single substitutions
With: (+)-ABA 0.11 µM
Reference: wild-type fitted maximum
Reading: higher = stronger binding
Quantity: relative binding score
Parent: PYL1, truncated, DHFR fusion (Arabidopsis thaliana); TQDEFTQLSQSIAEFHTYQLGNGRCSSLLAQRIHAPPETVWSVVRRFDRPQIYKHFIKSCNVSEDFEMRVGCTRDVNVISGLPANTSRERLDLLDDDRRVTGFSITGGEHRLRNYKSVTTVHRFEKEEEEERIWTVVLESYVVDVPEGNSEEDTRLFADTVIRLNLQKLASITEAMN; partner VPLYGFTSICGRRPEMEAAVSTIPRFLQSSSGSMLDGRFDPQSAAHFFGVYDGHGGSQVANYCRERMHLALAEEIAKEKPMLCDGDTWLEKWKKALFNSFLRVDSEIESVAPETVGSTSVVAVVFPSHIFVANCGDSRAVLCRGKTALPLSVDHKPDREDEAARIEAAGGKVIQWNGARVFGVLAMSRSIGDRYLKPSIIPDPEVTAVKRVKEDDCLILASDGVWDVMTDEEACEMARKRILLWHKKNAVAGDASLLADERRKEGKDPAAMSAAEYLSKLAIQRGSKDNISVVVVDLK
Q167C: 11.8%
E67H: 19.3%
L29C: 6.81%
R111N: -0.378%
T119D: 0.00185%
G71H: 6.01%
T160I: -3.63%
P37M: 3.75%
A30R: 9.59%
K54C: -4.83%
T120N: -10.7%
E127R: 39.4%
F5Q: 15.5%
D95S: 8.57%
A84W: 96.1%
G81H: -1.71%
C25T: 52.7%

Further values, each from its own experiment
PhoQ, residues 284 288 289 292 302 303 SVTLVV  fold induction (PhoP, residues 12 14 15 18 19 NYFTV (Escherichia coli, UniProt P23836); Sort-seq, item: YFP reporter; E. coli; PhoQ-PhoP variant library, with: 10 µM Mg2+; reference: high Mg2+ state, higher = stronger signaling): 15.6

Some of these lines once more (sample 2):
UAAGGAUCUCUAUUUCAUCUCUUGAACGAUGAAAAUAGUGACGUAUAUAUAGUACUUCUAUAAAUAACAGUUUUUAAGAAAUAGGUAAGUGGGGCAGGUUUGGUGGCUUC: 0.918
GCAAGCAGUGUAAACUGCAACUAGUGAUGUAAAUGUGCUAUUACCUAGGUAACUGCAUAUAUAUAAGGAAUGUAUUUUGUUAAGAAGGCUUUUGUGAAAUUCAGAAUUUU: 0.493
AGAUGUCCCACAUGGAAGACGCUAUUCCAGGAUCUUUAAAUUUCCAUGGAUGCAUAUAGGAUGUUUGGGAGCAUCAUCCGUGAAGAAAAAAUCAAUUAAAUCAUUGUGUU: 0.601
AAAAAAAAAAAAAAAAAAAAAAAAAAAAGGAGAAAGAAAAAAAAAGAAAGAAAAAAUAGCAGCUUUCAGUGCUUCACAGUGAAGGGAAAAAAGCCUAGACAAACAUUUUG: 5.12
UGCUCUGACCUUGUGUAUUCUGACUCUUUGGAAACCAGGCCCUGCUUUUGCCAAGCCUCCCAUCCUGAGCUCUAAAUGGAAGGCCUUUCUAUGGGGUAGCUAAGUUUGGG: 0.242
GGAUUUAAUGCACUUGACGUGGAUUAAGUUAUUCUGAGCAUGUUACUGUAAUGAUUCUCAAAUUAACUGUAUUAGUGUAAGCUUUGUCACUAUGCGCUAAACGUAAUCCU: 0.899
GCCAAAAUGAGCCUCGGUGUCAGAGGAUACAACAAAAACAGCAAUUUUGAUGCCUUUGAAAUGAUGAAGGGAUUCUACCUGUAUUUUUACUCUUAGAACAGAUACAACUU: 0.442
UUCUCAUCCCCUGCUUGGCUUCUCUGCAUGUGGUCAUCUGCUGUGGCUUGGUGUUUAAUGGGUUAAAAAUAAGCCACUGCCUGACAUCCCAACAUUUGACACCCCAGCAA: 10.1
